# Measurements from different studies.
# Values joined by “and” are separate records of one study, mostly repeats; a detail may differ. Numbers after ± are the reported error.
Compound,test,test system,setting,scale,quantity,value
C[C@@H]1OC(=O)NN=C1c1ccc(-c2ccc(F)cc2)c(C(F)(F)F)c1,"phase I trial, measured: AST increased all grades",human patients,5 mg loading then 0.25 mg daily,,patients with adverse event,0%
CC(C)c1cccc(N=Nc2ccc3[nH]cc(CCN(C)C)c3c2)c1,light irradiation,solution,with: light 385 nm,,cis isomer at photostationary state,81%
O.O.O.O.O.O.[Cl-].[Cl-].[Co+2],,"rat female, urine","oral, 10 mg/kg single, day 1",,urinary cobalt creatinine-corrected,0.82 µg/µmol creatinine
CCN(CCO)CCCC(C)Nc1ccnc2cc(Cl)ccc12 (centres unmarked),measured: Irritability grade 1,newly diagnosed glioblastoma patients,"oral, 400 mg/dose, with radiotherapy and temozolomide",,patients with adverse event,14%
O=S(=O)(Nc1ccccc1)c1ccc(NC(=S)Nc2ccccc2)cc1,,"female mice, lung","oral, 20 mg/kg daily 14 days",reference: body weight,relative organ weight,1.09%
COc1ccc(-c2c(-c3ccc(C#N)c(F)c3)nc(N3CCC(N)CC3)n(C)c2=O)cc1F,measured: Fatigue/asthenia,human patients,"oral, dose not given, any grade, dose escalation, NG",,treatment-related adverse event incidence,16%
C[C@]1(CO)Cc2ncn(-c3ccc(C#N)c(Cl)c3)c2C(=O)O1,,"human, plasma","20 mg single dose, median",,tmax,1.5 h
C[C@@H](NC(=O)N1C(=O)[C@H](Cc2ccnc(N)c2)[C@H]1C(=O)O)C1CCCCC1,,healthy Chinese adults,"continuous intravenous infusion, 1.5 mg/kg/h, 5.0 days",,urine leukocyte-positive,0%
CC(C)(O)c1cc(Nc2cc(Oc3cn(C4CC4)nc3C3CCOCC3)ccn2)ccn1,Anemia,"advanced cancer patients, dose escalation","oral, dose not given, 2 weeks on/off, all causality grade ≥3",,treatment-emergent adverse events,0%
CN(C(=O)n1cnc(-c2ccc[n+]([O-])c2)c1)C1CCCCC1,,"Wistar rat, cerebral cortex","oral, 10 mg/kg/day, 72 h, repeated 5 days",,concentration,8.1 ± 2.1 ng/g
COc1cccc2c1CCCC2CCCN1CCN(C2CCCCC2)CC1 (centres unmarked),,"CD-1 mouse, male, lung","intraperitoneal, 3 mg/kg",,half-life,130 min
COc1ccc([C@@H]2CC(=O)c3c(O)cc(O)cc3O2)cc1O,,"Sprague-Dawley rat, male, lean, urine","oral, 100 mg/kg neohesperidin, 48 h",reference: dose,urinary recovery,0.471 ± 0.12%
CC(=O)c1c(C)c2cnc(Nc3ccc(C4CCN(CCS(C)(=O)=O)CC4)cn3)nc2n(C2CCCC2)c1=O,,"human, plasma","oral, 50 mg twice daily, day 21, multiple doses, with: letrozole",,AUC(0-inf),593 ng·h/mL
Cc1cc(C)c(CNC(=O)c2cc(Cl)c3c(c2C)O[C@@](C)([C@H]2CC[C@H](N(C)C)CC2)O3)c(=O)[nH]1,,relapsed/refractory NHL patients,"dose not given, all TEAEs, safety set",,grade 5 atrial fibrillation incidence,0%
CNC(=O)c1cc(Oc2ccc(NC(=O)Nc3cc(C(C)(C)C)nn3-c3ccc4ncccc4c3)c(F)c2)ccn1,"left ventricular dysfunction, NCI CTC v3.0",human patients,"oral, all dose levels",,related SAE,2%
CN1CCN(S(=O)(=O)c2cc([N+](=O)[O-])ccc2N(CCOS(C)(=O)=O)CCOS(C)(=O)=O)CC1,,"naive NOD/SCID mice, pooled blood","intraperitoneal, 18.8 mg/kg, week 4",,globulin,16 g/L
C[C@]1(O)C[C@@](N)(c2ccc(-c3nc4n(c3-c3ccccc3)COc3ccncc3-4)cc2)C1,,"human, advanced or metastatic solid tumours","28 mg intermittent, phase I dose escalation",,patients with Pruritus TEAE,66.7%
CC(C)=CC1C(C(=O)OC(C#N)c2cccc(Oc3ccccc3)c2)C1(C)C (centres unmarked),measured: CYP2B6,"human, age 5 years",,,enzyme contribution to clearance,0.97%
COc1ccc2c(c1)CN(C(=O)CCN1CCC(Cc3ccccc3)CC1)CC[S@@+]2[O-],,"female beagle dogs, chronic AV block","intravenous, 3 mg/kg, 4 h",,QTcF,284 ± 9 ms
O=C(O)CCCOc1ccc(F)cc1-c1cc(-c2ccccc2C(F)(F)F)n(-c2ccccc2)n1,measured: adrenals,"Crl:CD(SD) rats, female","iv, 25 µg/kg, 1 day",,organ weight,64.1 ± 8.2 mg
CCN1CCN(Cc2ccc(Nc3ncc(F)c(-c4cc(F)c5nc6n(c5c4)[C@H](C)CCC6)n3)nc2)CC1,,patients with advanced solid tumours,"dose not given, phase Ia monotherapy",,diarrhoea incidence,16.7%
Cc1ccc(F)c2cc(C(=O)N[C@@H]3CCC[C@H](N4CC[C@H](N(C)S(C)(=O)=O)C4)C3)[nH]c12,,"CD1 mouse, plasma","oral, 100 mg/kg, 4 h",,plasma concentration,2610 ng/mL
CN1CC[C@@H](c2c(O)cc(O)c3c(=O)cc(-c4ccc(C(F)(F)F)cc4Cl)oc23)[C@@H]1CO,measured: Hypotension,relapsed or refractory haematological malignancies,"oral, dose not given, grade 3 to 4, all arms",,patients with adverse event,7.5%
CC(C)(c1ccccc1)c1cc(-n2nc3ccccc3n2)c(O)c(C(C)(C)c2ccccc2)c1,,human aged 21-60 years,"concentration not given, sunscreen, 95th percentile",,daily dermal exposure dose,1.56 ng/kg/day
C=CC(=O)Nc1cc(Nc2nccc(Nc3cc(Cl)c(F)cc3C(C)(C)O)n2)c(OC)cc1N1CC[C@@H](N(C)C)C1,treatment-emergent adverse events,human,"oral, 400 mg, phase I clinical trial",,incidence of weight decreased,30%
COc1cc2c(Oc3ccc4[nH]c(C)cc4c3F)ccnc2cc1OCC1(N)CC1,,paediatric recurrent refractory sarcoma,"concentration not given, whole group",,grade 3 sinus bradycardia,0%
CCc1ccc(CC/C=C/c2ccc3c(c2)C(=O)CC3)cc1,,"Sprague-Dawley rat, male, blood","oral, 450 mg/kg/day, 14 days",,MCH,19.1 pg
CC(C)CC(=O)OC[C@H]1O[C@@](C#N)(c2ccc3c(N)ncnn23)[C@H](O)[C@@H]1O,plasma protein binding,rat plasma,9 µM,,bound fraction,0.918
O[C@H]1CCCN[C@@H]1CCCn1cnc2c(Cl)c(Cl)ccc21,,"healthy CYP2D6 EM and UM, plasma","oral, dose not given, with: pirfenidone",,Cmax geometric LS mean,221 ng/mL
COc1ccc([C@@H](O)c2cc(-c3ncnc4cc(N5CCOCC5)ccc34)c(F)cc2Cl)nn1,,"patients, advanced solid tumours","oral, 300 mg twice daily, treatment-emergent, with: avelumab",reference: patients,vascular disorders incidence,2%
CN(C)C1(CNC(=O)c2ccc3c(c2)CCN3C(=O)c2ccccc2)CCOCC1,,male C57BL/6 mice,"intraperitoneal, 50 mg/kg, 120 min",,unbound brain concentration,42.3 nM
O=C(Nc1ccccc1)C1CCN(C(=O)Oc2cccnc2)CC1,Bond-Lader VAS,healthy women,20 mg,"reference: pre-dose baseline, direction not given",change in Alert-Drowsy score,-2.2
CO[C@H]1C[C@@H]2CC[C@@H](C)[C@@](O)(O2)C(=O)C(=O)N2CCCC[C@H]2C(=O)O[C@H]([C@H](C)C[C@@H]2CC[C@@H](OC(=O)NCCOCCOCCOCCOCCOCCOCCOCCOCCC(=O)N3CCc4cc(Cn5nc(-c6ccc7oc(N)nc7c6)c6c(N)ncnc65)ccc4C3)[C@H](OC)C2)C[C@@H](O)[C@H](C)/C=C(\C)[C@@H](O)[C@@H](OC)C(=O)[C@H](C)C[C@H](C)/C=C/C=C/C=C/1C,dose-escalation trial,patients with advanced solid tumours,"intravenous, all doses weekly, any grade",,decreased appetite leading to dose reduction,1.8%
COc1ccc(C[C@@H]2NC(=O)[C@H]([C@@H](C)O)NC(=O)[C@@H]3[C@@H]4CCN3C(=O)[C@@H]3Cc5cn(c6ccc(F)cc56)CCCCCCN(Cc5ccc(cc5)CCNC(=O)[C@]5(C)CCCN5C2=O)C(=O)CCC(=O)N[C@@H](C)C(=O)N[C@H](CNC(=O)CCCCC[N+](C)(C)C)C(=O)N[C@@H](Cc2cccc(c2)CNC(=O)CO4)C(=O)N3)cc1,measured: Flushing,humans,"concentration not given, Study-003",,participants with adverse event,3.2%
CCCCCCC#Cc1cncc(-c2nnc(SCc3ccc([N+](=O)[O-])o3)n2C2CC2)c1,,mouse plasma,plasma stability,,t1/2,238 min
COc1cccc(Oc2ccccc2NC(=O)CNC(=O)c2cccc3ccccc23)c1,,"esterase-deficient SCID mice, male","oral, 15 mg/kg/day, 14 days, toxicity study",,alkaline phosphatase,127 U/L and 170 U/L and 120 U/L
CC[C@H](C)CCCCC(=O)N[C@@H](CCN)C(=O)N[C@H](C(=O)N[C@@H](CCN)C(=O)N[C@H]1CCNC(=O)[C@H]([C@@H](C)O)NC(=O)[C@H](CCN)NC(=O)[C@H](CCN)NC(=O)[C@H](CC(C)C)NC(=O)[C@@H](Cc2ccccc2)NC(=O)[C@H](CCN)NC1=O)[C@@H](C)O,,"critically ill patients, 28-day survivors, plasma","dose not given, median",,AUC(0-24 h) at steady state,87.2 mg·h/L
Cn1cncc1-c1c(F)cncc1NC(=O)c1c(N)nn2cc(F)cnc12,,human patients,"oral, 80 mg once daily",,grade ≥3 hyponatraemia incidence,0%

# A few entries again:
Compound,test,test system,setting,scale,quantity,value
COc1ccc2c(c1)CN(C(=O)CCN1CCC(Cc3ccccc3)CC1)CC[S@@+]2[O-],,"female beagle dogs, chronic AV block","intravenous, 3 mg/kg, 4 h",,QTcF,284 ± 9 ms
CCN1CCN(Cc2ccc(Nc3ncc(F)c(-c4cc(F)c5nc6n(c5c4)[C@H](C)CCC6)n3)nc2)CC1,,patients with advanced solid tumours,"dose not given, phase Ia monotherapy",,diarrhoea incidence,16.7%
Cc1cc(C)c(CNC(=O)c2cc(Cl)c3c(c2C)O[C@@](C)([C@H]2CC[C@H](N(C)C)CC2)O3)c(=O)[nH]1,,relapsed/refractory NHL patients,"dose not given, all TEAEs, safety set",,grade 5 atrial fibrillation incidence,0%
